Assay results from different studies.
Protocols differ between the studies behind these lines. “And” joins repeats or separate records; there may be more than shown. ± gives the spread as reported.
dxs: 1-deoxy-D-xylulose-5-phosphate synthase (dxs, Escherichia coli, UniProt P77488)
UniProt P77488, sequence (whole entry, looked up): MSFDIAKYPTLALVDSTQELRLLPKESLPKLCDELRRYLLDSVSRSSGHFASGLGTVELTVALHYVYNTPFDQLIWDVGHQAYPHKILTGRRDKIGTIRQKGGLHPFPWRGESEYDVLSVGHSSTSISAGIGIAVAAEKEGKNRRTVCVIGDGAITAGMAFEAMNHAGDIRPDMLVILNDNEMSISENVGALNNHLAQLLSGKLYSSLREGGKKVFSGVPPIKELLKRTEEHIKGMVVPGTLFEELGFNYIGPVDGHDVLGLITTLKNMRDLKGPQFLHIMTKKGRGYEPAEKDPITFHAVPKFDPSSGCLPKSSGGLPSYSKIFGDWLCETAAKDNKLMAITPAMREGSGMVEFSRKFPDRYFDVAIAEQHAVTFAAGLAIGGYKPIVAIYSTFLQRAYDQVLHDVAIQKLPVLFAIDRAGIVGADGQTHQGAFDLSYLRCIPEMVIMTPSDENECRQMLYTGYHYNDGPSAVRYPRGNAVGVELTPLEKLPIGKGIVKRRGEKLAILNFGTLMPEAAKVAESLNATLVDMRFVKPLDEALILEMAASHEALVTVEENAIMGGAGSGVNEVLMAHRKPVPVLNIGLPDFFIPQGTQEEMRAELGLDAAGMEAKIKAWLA
Sigma-2 receptor/TMEM97: Sigma-2 receptor/TMEM97 (Cavia porcellus, UniProt H0V073)
SIGMAR1: Sigma non-opioid intracellular receptor 1 (SIGMAR1, Cavia porcellus, UniProt Q60492)
UniProt Q60492, sequence (whole entry, looked up): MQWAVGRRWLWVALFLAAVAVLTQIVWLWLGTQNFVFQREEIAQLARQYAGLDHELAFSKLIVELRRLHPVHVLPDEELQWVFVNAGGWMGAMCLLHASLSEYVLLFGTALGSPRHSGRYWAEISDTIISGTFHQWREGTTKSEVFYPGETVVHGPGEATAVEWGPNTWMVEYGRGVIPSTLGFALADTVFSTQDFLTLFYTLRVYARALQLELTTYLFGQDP
OPRL1: Nociceptin receptor (OPRL1, Homo sapiens, UniProt P41146)
UniProt P41146, sequence (whole entry, looked up): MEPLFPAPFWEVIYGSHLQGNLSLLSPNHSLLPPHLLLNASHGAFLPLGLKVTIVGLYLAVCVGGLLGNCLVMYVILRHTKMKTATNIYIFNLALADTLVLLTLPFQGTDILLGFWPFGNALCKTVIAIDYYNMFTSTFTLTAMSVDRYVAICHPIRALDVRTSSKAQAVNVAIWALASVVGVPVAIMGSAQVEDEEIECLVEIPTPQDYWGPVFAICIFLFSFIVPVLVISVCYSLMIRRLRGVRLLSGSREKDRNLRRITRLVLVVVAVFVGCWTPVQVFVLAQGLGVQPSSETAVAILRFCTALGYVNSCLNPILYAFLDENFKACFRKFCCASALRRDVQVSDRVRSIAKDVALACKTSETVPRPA
Oprd1: Delta-type opioid receptor (Oprd1, Mus musculus, UniProt P32300)
UniProt P02730, sequence (whole entry, looked up): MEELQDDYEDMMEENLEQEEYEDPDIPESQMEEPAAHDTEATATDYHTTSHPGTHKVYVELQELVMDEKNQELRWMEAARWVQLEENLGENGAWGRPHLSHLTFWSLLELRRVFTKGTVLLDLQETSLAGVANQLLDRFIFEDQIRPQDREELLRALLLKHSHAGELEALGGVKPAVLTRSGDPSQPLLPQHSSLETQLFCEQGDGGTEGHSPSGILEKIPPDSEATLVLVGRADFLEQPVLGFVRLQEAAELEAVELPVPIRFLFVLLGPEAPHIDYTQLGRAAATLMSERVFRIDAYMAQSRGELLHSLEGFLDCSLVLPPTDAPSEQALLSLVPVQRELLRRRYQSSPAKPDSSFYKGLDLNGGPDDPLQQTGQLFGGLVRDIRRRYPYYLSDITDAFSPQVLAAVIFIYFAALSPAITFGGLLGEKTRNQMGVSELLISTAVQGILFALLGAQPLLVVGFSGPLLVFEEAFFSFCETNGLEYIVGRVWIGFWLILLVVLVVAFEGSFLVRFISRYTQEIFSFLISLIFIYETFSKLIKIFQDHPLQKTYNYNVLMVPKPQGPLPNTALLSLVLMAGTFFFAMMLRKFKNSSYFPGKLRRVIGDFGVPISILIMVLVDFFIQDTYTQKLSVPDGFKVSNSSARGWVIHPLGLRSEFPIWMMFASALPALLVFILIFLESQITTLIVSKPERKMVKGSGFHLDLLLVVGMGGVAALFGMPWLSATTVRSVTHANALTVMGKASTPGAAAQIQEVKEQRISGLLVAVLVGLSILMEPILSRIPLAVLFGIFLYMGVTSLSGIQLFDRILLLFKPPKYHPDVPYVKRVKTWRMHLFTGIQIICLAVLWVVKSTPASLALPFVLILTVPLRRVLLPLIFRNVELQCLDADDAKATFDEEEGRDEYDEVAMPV
UniProt P32300, sequence (whole entry, looked up): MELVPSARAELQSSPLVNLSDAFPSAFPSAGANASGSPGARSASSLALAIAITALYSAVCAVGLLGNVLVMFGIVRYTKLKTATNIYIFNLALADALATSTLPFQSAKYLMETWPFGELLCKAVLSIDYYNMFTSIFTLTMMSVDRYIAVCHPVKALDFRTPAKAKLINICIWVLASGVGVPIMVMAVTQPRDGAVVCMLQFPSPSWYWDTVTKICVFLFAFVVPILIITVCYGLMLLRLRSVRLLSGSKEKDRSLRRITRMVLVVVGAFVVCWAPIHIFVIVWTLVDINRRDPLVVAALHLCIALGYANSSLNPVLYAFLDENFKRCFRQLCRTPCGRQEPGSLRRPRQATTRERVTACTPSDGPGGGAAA
UniProt P20231, sequence (whole entry, looked up): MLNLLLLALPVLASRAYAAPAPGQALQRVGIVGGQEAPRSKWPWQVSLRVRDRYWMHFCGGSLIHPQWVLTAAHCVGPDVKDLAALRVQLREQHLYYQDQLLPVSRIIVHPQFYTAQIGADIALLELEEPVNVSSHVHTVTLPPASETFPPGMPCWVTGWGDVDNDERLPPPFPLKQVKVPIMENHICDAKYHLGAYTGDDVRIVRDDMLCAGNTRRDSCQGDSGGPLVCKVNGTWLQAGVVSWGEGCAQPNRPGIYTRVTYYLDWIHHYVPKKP
UniProt P0DMS8, sequence (whole entry, looked up): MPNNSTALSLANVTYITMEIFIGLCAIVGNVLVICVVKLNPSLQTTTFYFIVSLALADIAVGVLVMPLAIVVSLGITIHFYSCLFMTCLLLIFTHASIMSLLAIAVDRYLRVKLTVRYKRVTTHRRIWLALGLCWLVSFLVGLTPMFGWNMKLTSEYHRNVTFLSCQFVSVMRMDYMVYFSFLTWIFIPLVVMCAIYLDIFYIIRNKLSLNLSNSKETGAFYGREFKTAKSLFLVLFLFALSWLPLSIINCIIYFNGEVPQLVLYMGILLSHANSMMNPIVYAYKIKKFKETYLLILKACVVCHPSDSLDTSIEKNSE
UniProt P21462, sequence (whole entry, unmodified, looked up): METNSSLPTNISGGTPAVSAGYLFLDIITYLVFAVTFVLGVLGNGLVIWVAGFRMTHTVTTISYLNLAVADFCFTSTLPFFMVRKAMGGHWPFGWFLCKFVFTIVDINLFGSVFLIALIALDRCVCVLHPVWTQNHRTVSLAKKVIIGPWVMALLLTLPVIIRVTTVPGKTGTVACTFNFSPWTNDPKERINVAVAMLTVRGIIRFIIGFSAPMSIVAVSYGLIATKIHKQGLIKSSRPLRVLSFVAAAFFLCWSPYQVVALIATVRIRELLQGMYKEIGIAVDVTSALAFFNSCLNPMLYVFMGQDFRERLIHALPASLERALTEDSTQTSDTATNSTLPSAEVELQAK
UniProt Q9Y3Z3, sequence (whole entry, looked up): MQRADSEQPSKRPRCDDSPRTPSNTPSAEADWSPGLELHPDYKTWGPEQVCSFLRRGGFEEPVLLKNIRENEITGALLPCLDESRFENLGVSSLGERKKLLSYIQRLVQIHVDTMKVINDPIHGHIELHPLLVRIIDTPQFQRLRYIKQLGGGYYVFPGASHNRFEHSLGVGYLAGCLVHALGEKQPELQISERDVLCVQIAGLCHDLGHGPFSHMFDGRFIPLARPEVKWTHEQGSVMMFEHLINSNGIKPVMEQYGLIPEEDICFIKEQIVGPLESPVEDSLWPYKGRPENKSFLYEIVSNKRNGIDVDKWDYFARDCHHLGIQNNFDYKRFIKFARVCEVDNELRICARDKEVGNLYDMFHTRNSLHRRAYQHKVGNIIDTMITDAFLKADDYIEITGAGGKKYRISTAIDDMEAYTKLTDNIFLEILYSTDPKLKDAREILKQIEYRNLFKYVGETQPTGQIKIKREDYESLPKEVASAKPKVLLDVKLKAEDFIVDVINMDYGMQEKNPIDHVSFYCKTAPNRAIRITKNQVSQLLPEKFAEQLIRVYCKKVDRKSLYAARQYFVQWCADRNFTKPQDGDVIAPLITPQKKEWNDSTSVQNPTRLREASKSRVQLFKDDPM
UniProt P00330, sequence (whole entry, unmodified, looked up): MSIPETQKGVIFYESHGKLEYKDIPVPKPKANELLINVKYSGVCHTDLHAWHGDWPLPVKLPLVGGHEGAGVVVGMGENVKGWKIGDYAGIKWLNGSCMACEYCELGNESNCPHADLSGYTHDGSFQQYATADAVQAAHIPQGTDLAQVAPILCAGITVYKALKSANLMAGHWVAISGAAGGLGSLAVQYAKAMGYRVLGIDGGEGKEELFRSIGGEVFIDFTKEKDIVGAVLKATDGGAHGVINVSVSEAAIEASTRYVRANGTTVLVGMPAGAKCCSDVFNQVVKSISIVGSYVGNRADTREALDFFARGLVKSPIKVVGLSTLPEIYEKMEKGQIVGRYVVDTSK
UniProt P20272, sequence (whole entry, looked up): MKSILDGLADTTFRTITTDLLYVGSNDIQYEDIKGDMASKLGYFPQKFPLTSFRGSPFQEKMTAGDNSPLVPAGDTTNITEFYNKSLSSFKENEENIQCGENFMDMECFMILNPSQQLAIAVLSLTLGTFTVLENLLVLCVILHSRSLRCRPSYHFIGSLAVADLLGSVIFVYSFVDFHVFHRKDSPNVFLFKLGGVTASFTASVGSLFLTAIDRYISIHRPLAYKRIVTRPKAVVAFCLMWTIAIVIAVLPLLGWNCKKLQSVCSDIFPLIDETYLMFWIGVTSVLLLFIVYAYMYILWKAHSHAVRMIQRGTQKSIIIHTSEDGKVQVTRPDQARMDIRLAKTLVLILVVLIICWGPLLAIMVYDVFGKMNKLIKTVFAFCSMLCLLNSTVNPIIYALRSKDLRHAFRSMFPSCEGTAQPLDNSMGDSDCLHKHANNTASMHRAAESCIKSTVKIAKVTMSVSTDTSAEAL

| SMILES | target | assay | test system | conditions | Ki |
| --- | --- | --- | --- | --- | --- |
| N=C(N)NCCC[C@H](NC(=O)[C@H](Cc1c[nH]c2ccccc12)NC(=O)[C@H](CCCCN)NC(=O)CNC(=O)CCC(=O)N/N=C/c1ccc(/C=N/NC(=O)CCC(=O)NCC(=O)N[C@@H](CCCCN)C(=O)N[C@@H](Cc2c[nH]c3ccccc23)C(=O)N[C@@H](CCCCNC(=O)c2ccc(C(=O)NC(=N)N)[nH]2)C(N)=O)cc1)C(N)=O | Tryptase beta-2 (TPSB2, Homo sapiens, UniProt P20231) | non-competitive inhibitor | – | – | 0.121 µM |
| CCCCC[C@H](O)/C=C/[C@H]1CCC(=O)[C@@H]1CCCCCCC(=O)O | Prostaglandin E2 receptor EP4 subtype (Ptger4, Rattus norvegicus, UniProt P43114) | ligand displacement, radioligand | – | – | 0.00021 µM |
| COP(=O)(O)C(C)=O | dxs | enzyme activity, inhibitor | – | – | 3.24 µM |
| CCCCCCCC(=O)O[C@H]1/C(=C/C(=O)OC)C[C@H]2C[C@H]([C@@H](C)O)OC(=O)CCCC(=O)OCC(C)(C)[C@]1(O)O2 | Protein kinase C delta type (PRKCD, Homo sapiens, UniProt Q05655) | ligand displacement, radioligand | – | – | 0.241 µM |
| CN(C)CCN(C)CCc1ccc(Cl)c(Cl)c1 | Sigma-2 receptor/TMEM97 | binding | guinea pig brain | low-affinity site, two-site fit, together with: [3H]DTG 3 nM with (+)-pentazocine 200 nM | 55.3 µM |
| CN(C(=N)Nc1cccc2ccccc12)c1cc(C(F)(F)F)ccc1F | NMDA receptor PCP site, rat | radioligand binding | rat brain homogenate | 2 h, 23 °C, together with: [3H](+)-MK-801 0.50 nM, L-glutamate 100 µM, glycine 30 µM | 0.00129 ± 3e-05 µM |
| CCC[C@]1(C(=O)O)C[C@H]1[C@H](N)C(=O)O.Cl | kainate receptor, rat | [3H]kainate displacement | cortical synaptosomes | – | 21 µM |
| CN1CC[C@@]23C[C@@H]1CC[C@H]2Oc1ccc(O)cc13 (racemic) | Kappa-type opioid receptor (OPRK1, Homo sapiens, UniProt P41145) | cell-free assay, radioligand | – | – | > 10 µM |
| CC[C@H](C)CN(C[C@@H](O)[C@H](Cc1ccccc1)NC(=O)[C@@H](NC(C)=O)[C@@H](C)CC)S(=O)(=O)c1ccc2ncsc2c1 | Gag-Pol polyprotein, protease (Human immunodeficiency virus type 1 group M subtype B, UniProt P03369, G538V/I544V/L500I/V572A) | – | – | – | 0.000376 ± 0.000168 µM |
| CCCCCCCCCCCCCCCCCCN | SIGMAR1 | ligand displacement, radioligand | – | – | 8.5 µM |
| O=C(/C=C/c1ccoc1)N[C@@H]1CC[C@@]2(O)[C@H]3Cc4cccc5c4[C@@]2(CCN3CC2CC2)[C@H]1O5 | Mu-type opioid receptor (Oprm1, Mus musculus, UniProt P42866) | ligand displacement, radioligand | – | – | 0.0251 µM |
| CCNC(=O)[C@H]1O[C@@H](n2cnc3c(N)nc(NCCc4ccc(CCC(=O)NCCN)cc4)nc32)[C@H](O)[C@@H]1O | Adenosine receptor A3 (ADORA3, Homo sapiens, UniProt P0DMS8) | ligand displacement, radioligand | – | cell membranes | 0.02 µM |
| N=C(O)c1ccc[n+]([C@@H]2O[C@H](COP(=O)(O)OP(=O)([O-])OC[C@H]3O[C@@H](n4cnc5c(N)ncnc54)[C@H](O)[C@@H]3O)[C@@H](O)[C@H]2O)c1 | ADH1 (Saccharomyces cerevisiae, UniProt P00330, H45R/H49Q) | inhibitor | – | pH 7.3, 30 °C | 230 µM |
| O=C(O)COP(=O)(O)O | Triosephosphate isomerase, glycosomal (Trypanosoma brucei brucei, UniProt P04789) | enzyme activity, competitive inhibitor | – | extrapolated, Glu-167 fully protonated, together with: glyceraldehyde 3-phosphate | ~0.012 µM |
| CCC(=O)C(=O)O | putA, PRODH domain (Escherichia coli, UniProt P09546) | competitive inhibitor | – | pH 7.5, room temperature, together with: L-proline | 1800 ± 100 µM |
| NC[C@H]1C[C@@H](C23CC4CC(CC(C4)C2)C3)Cc2c1ccc(O)c2O (relative stereo) | D(1A) dopamine receptor (Sus scrofa, UniProt P50130) | binding, radioligand competition binding | porcine striatal homogenate | together with: 1 nM [3H]SCH-23390 | 0.22 ± 0.036 µM |
| Nc1cc(C(=O)O)cc([C@H]2CCN[C@@H]2C(=O)O)c1 (racemic) | Glutamate receptor ionotropic, kainate 1 (Rattus norvegicus, UniProt P22756) | ligand displacement, radioligand | – | cell membranes | 32.7 µM |
| CCCN(CCC1(O)CC(NS(=O)(=O)c2ccccc2)C1)[C@H]1CCc2nc(N)sc2C1 (stereo in doubt) | dopamine D2-like receptor, rat | radioligand binding | rat striatal membranes | high-affinity component, together with: [3H]spiperone | 0.081 ± 0.011 µM |
| Nc1nc(F)nc2c1ncn2[C@@H]1O[C@H](CO)[C@@H](O)[C@@H]1O | Adenosine receptor A1 (ADORA1, Homo sapiens, UniProt P30542) | ligand displacement, radioligand | – | cell membranes | 3 µM |
| O=P(O)(O)Oc1cccc(OP(=O)(O)O)c1 | Signal transducer and activator of transcription 5A, SH2 (Homo sapiens, UniProt P42229) | ligand displacement, FP | – | – | 24 µM |
| O=[As](O)(O)O | Triosephosphate isomerase, glycosomal (Trypanosoma brucei brucei, UniProt P04789, I172V) | inhibitor | – | pH 7.5, 25 °C, ionic strength 0.1, together with: DHAP substrate | 4500 µM |
| C[C@H]1CN(C[C@H]2Cc3ccccc3CN2)CC[C@@]1(C)c1cccc(O)c1 | OPRL1 | ligand displacement, radioligand | – | – | 0.0377 µM |

| SMILES | target | assay | test system | conditions | Ki |
| --- | --- | --- | --- | --- | --- |
| Cc1cn([C@H]2C[C@H](O)[C@@H](COP(=O)(O)NP(=O)(O)OP(=O)(O)O)O2)c(=O)[nH]c1=O | Deoxynucleoside triphosphate triphosphohydrolase SAMHD1 (SAMHD1, Homo sapiens, UniProt Q9Y3Z3) | enzyme activity, inhibitor | – | – | 0.145 µM |
| c1ccc(CCN2CCCCC2)cc1 | D(2) dopamine receptor (Drd2, Rattus norvegicus, UniProt P61169) | ligand displacement, radioligand | – | – | > 10 µM |
| NC(=O)CC[C@H](N)C(=O)O | anandamide membrane transporter rat | [3H]anandamide uptake, non-competitive inhibitor | brain synaptosomes | – | 0.85 ± 0.08 µM |
| C[C@]12CC[C@H](O)C[C@@]1(O)CC[C@@H]1[C@@H]2CC[C@]2(C)[C@@H](c3ccc(=O)oc3)C[C@H]3O[C@]132 | Sodium/potassium-transporting ATPase subunit alpha-1 (ATP1A1, Homo sapiens, UniProt P05023) | enzyme activity | purified human kidney enzyme | 1% DMSO | 1.04 ± 0.06 µM |
| O=C(/C=C/c1ccoc1)N[C@H]1CC[C@@]2(O)[C@H]3Cc4ccc(O)c5c4[C@@]2(CCN3CC2CC2)[C@H]1O5 | Oprd1 | binding, radioligand displacement | – | together with: [3H]diprenorphine | 0.02 ± 0.0033 µM |
| CCCCN1C(=O)C(C=CC=CC=C2C(=O)N(c3ccc(S(=O)(=O)O)cc3)N=C2C)C(=O)N(CCCC)C1=O | SLC4A1 (Homo sapiens, UniProt P02730) | 36Cl exchange flux, inhibitor, extrapolated to zero chloride | human erythrocytes | 0 °C, unloaded forms, short exposure | 0.716 µM and 0.72 µM |
| CCCN(CCC1(O)CC(NS(=O)(=O)c2ccc(F)c(Cl)c2)C1)[C@H]1CCc2nc(N)sc2C1 (stereo in doubt) | dopamine D1-like receptor, rat | radioligand binding | rat striatal membranes | together with: [3H]SCH23390 | 41.9 ± 2.76 µM |
| CCCCCCCCCCCCC/C=C/[C@@H](O)[C@H](CO)N(C)C | SIGMAR1 | ligand displacement, radioligand | – | cell membranes | 2.9 µM |
| CC(=O)P(=O)(O)OCc1ccccc1 | dxs | enzyme activity, inhibitor, absorbance | – | – | 10.4 µM |
| O=C(O)[C@H]1O[C@H](OP(=O)(O)OP(=O)(O)OC[C@H]2O[C@@H](n3ccc(=O)[nH]c3=O)[C@H](O)[C@@H]2O)[C@H](O)[C@@H](O)[C@@H]1O | P2Y purinoceptor 14 (P2RY14, Homo sapiens, UniProt Q15391) | ligand displacement | – | – | 5.3 µM |
| CC1(C)Oc2cc(C(=O)N3C4CC5CC3CC(C4)O5)cc(O)c2[C@@H]2C[C@@H](O)CC[C@H]21 | Cannabinoid receptor 1 (Cnr1, Rattus norvegicus, UniProt P20272) | [3H]CP-55,940 displacement | rat brain membranes | together with: [3H]CP-55,940 | no binding |
| OC[C@H]1O[C@@H](n2cnc3c2N=CNC[C@H]3O)C[C@@H]1O | MTA/SAH deaminase (Pseudomonas aeruginosa, UniProt Q9HZ64) | inhibitor | – | pH 7.4, 25 °C, together with: MTA 100 µM | 0.037 ± 0.001 µM |
| c1ccc2sc(C3(N4CCCCC4)CCCCC3)cc2c1 | Trypanothione reductase (TPR, Trypanosoma brucei brucei, UniProt P39051) | competitive inhibitor, DTNB-coupled | Trypanosoma brucei | pH 7.4, together with: trypanothione disulfide | 1 ± 0.08 µM |
| N[C@@H](CCC(=O)O)C(=O)O | anandamide membrane transporter, mouse | [3H]anandamide uptake, non-competitive inhibitor | mouse brain synaptosomes | – | 3.58 ± 0.3 µM |
| CN(C(=O)/C=C/c1ccoc1)[C@@H]1CC[C@@]2(O)[C@H]3Cc4cccc5c4[C@@]2(CCN3CC2CC2)[C@H]1O5 | Oprd1 | binding, radioligand displacement | – | together with: [3H]diprenorphine | 1 ± 0.19 µM |
| CN(CCOC/C=C/c1ccccc1)Cc1ccccc1 | Mu-type opioid receptor (OPRM1, Homo sapiens, UniProt P35372) | – | – | – | 2.76 to 3.04 µM |
| CCCC[C@H](NC=O)C(=O)N[C@@H](CC(C)C)C(=O)N[C@@H](Cc1ccccc1)C(=O)O | fMet-Leu-Phe receptor (FPR1, Homo sapiens, UniProt P21462, R190W) | binding, inhibitor | – | – | 0.16 ± 0.025 µM |
| CN1CCN(CCc2ccc(Cl)c(Cl)c2)CC1 | SIGMAR1 | ligand displacement, radioligand | – | – | 0.00881 µM |
| C[C@H]1CN(C[C@H]2Cc3ccc(O)cc3CN2)CC[C@@]1(C)c1cccc(O)c1 | OPRL1 | ligand displacement, radioligand | – | – | > 10 µM |
| O=Cc1cc(O)c(O)cc1O | dxs | inhibitor | – | together with: 2.0 mM ascorbic acid | > 75 µM |
| CN(CCc1ccc(Cl)c(Cl)c1)CCN1CCCC1 | Sigma-2 receptor/TMEM97 | binding | guinea pig brain | low-affinity site, two-site fit, together with: [3H]DTG 3 nM with (+)-pentazocine 200 nM | 20.5 µM |
